# Experimental data of several laboratories.
# A part holds a random share of what one study measured.

# Study 1 — technique: universal PBM; molecule type: double-stranded DNA, one strand shown; sample: in vitro; tested at: 600 nM; reading: higher = stronger binding
# Target: Sal-like protein 4, full length isoform A (SALL4, Homo sapiens, UniProt Q9UJQ4, residues 1-1053)
# Sequence of UniProt Q9UJQ4 (whole entry, looked up): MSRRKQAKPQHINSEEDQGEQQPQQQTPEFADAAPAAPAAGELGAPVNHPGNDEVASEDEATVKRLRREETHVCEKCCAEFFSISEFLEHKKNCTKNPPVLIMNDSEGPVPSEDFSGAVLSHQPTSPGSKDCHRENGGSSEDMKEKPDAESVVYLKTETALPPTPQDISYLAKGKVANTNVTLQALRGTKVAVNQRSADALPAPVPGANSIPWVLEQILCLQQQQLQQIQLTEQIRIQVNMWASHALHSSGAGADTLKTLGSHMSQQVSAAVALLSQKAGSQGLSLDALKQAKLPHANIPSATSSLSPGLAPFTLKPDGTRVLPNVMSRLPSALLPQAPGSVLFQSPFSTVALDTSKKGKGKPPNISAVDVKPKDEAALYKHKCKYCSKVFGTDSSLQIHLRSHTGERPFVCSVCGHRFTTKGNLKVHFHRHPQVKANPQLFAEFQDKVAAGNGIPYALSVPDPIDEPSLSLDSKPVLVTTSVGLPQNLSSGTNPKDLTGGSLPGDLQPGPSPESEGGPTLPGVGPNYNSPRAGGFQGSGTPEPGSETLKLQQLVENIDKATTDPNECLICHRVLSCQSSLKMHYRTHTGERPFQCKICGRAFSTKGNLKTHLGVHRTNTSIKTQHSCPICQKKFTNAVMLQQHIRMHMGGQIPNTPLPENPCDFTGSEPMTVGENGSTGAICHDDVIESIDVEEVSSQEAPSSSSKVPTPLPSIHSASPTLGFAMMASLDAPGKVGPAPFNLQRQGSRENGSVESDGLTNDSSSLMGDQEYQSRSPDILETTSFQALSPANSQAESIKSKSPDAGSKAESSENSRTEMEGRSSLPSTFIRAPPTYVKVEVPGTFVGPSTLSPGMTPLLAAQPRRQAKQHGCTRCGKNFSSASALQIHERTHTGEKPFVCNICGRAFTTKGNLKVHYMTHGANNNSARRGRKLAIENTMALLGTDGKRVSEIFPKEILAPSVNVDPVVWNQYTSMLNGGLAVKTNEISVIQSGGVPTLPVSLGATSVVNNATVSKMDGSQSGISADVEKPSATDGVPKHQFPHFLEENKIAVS
# Setting: 8-mer, flanks averaged, mean of replicates
Oligonucleotide,E-score
CAGGTTAA,0.0331
GCCTACCA,-0.0948
GATGACAA,0.162
CTAGCAAA,0.164
AAGCATCG,-0.00424
CAGCCAAG,-0.117
ATAGGCAA,0.127
ATAGCCGA,0.0879
AAATCTCC,-0.191
CGCTCGTC,-0.234
CTATCGAA,0.257
AAGTCTCA,0.0422
ATACCTGC,-0.0159
GTATTGAC,0.0176
CCGGATGA,-0.258
AGTTCATC,0.0301
TATGAAAA,0.41
CGGGCAGA,-0.201
CACGGGGG,-0.336
CGGGGGGA,-0.374
CCCGCTCA,-0.336
CGCGTGGA,-0.291
GTAAGGGA,0.00449

# Study 2 — technique: protein binding microarray; molecule type: double-stranded DNA, one strand shown; sample: in vitro; tested at: not given; relative to: not given; reading: higher = stronger binding
# Target: Histone acetyltransferase KAT6A, winged helix 2, GST fusion (KAT6A, Homo sapiens, UniProt Q92794, residues 85-181)
# Setting: 8-mer, flanks averaged, mean of 2 arrays, mostly near background
# Construct (chain): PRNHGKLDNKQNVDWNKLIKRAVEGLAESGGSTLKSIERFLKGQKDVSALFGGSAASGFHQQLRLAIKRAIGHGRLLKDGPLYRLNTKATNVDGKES
Oligonucleotide,E-score
TGATTAAA,0.0203
ACTAGCCC,-0.0111
CAAATTAC,-0.0365
CGAATGCA,0.0265
AGCTTCTG,0.0504
TAAGTAAA,-0.186
AAACGATT,-0.11
AATTACGA,-0.0355
ATAGTAAC,-0.11
CAGTAACG,-0.0822
AAATAAGA,-0.0433
ATATTCCG,0.188
AACGTGTG,-0.231
AGACCTAG,-0.0303
AGGCAGGG,0.0202
CTTTCAGC,0.0138
ATAGGGAT,-0.0985
GAATGGGA,-0.051
CCTACACA,-0.134

# Study 3 — technique: RNA Bind-n-Seq; molecule type: RNA; sample: in vitro; tested at: 365 nM; relative to: no-protein control; reading: higher = stronger binding
# Target: RNA binding protein fox-1 homolog 2, RRM domain, GST-SBP tag (RBFOX2, Homo sapiens, UniProt O43251-10, residues 100-194)
# Setting: natural RNA segment, single round, ends assumed
# Constant ends, left off below: GGGAGUUCUACAGUCCGACGAUC … UGGAAUUCUCGGGUGCCAA
# Construct (chain): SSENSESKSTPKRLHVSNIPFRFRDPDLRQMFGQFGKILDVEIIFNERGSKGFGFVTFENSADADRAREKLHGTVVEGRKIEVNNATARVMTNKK
Oligonucleotide,RBNS enrichment (R)
UUUUGCUAAUAGUUUGAGCACAAAUUGAAGCCCAGAAAUACUGAAAGCUUAUUAUUUUAUAUCCUUUAGGUAAUAUAUGUAUAUGCUAUAUACAUAUAAUUAUAUACAUA,0.91
GCCUCACACACCAUUUGUCCCAGACCAGUGGCAUUAGGCCAUAUAUUCUCUUCUAGUGUUUGCUUAAAAUAUGUGAAGUUUUUCUUGCUAUUUCAAUAACAAAUGGUGCU,0.43
CUAUGCACUUGAAGAUGGUUUAAAAGAUUAAAGAAACGAUUAAGAGAAAAGGUUGGAAGCUUUAUACUAAAUGGGCUCCUUCAUGGUGACGCCCCGUCAACCACAAUCAA,0.415
GCUGCUUGAUUACAAGUGCCAGGAAAACGACUGUUAUCCACUGCGUACUACAUGUUACAUGCUGCAUACUGUAUGUUACACACUGCAUACUAUGUGUUAUACACUGCAUA,0.606
CAAGGUAGCCAGGCCAGCCAGGAGCGCGGGUCUUUGAGAGACUUCACCGGAAUCUUUCCCCCUUCGUGUGUUUAGUGGAAACAUCCCCCCUCCUAAACAAACUAACAAAA,0.444
CCCUGACCAGCCUCCUCCCAUGACUGGUGACUGUUUAAUGAGCUGUGCAUCCCCCACAAAAACAUGAGUGCCCCUCUGUGUGGCCUCUAACCCUCUGCACAGCCCUUCUG,0.475
UAUCCAUUAACUUUCAUGGCUGACUUCUGUCUAGGCAUCAUAGUUUGCUUCAGAAUAGAUCUUUAUCAUCAUGUCUGCCUUUCCAUACUAUUGUAUUUAUUUUAGAAACU,0.31
GUAAGUAUCCACGACUCCAACCAGUAUUAUAGACCUUGGGGAUGUUUCAGAAUGUGGAAGUUACUAGGCCUGUCAAGCCAUCACUUCACCCCAAGAUCUCCAGUUUUAGA,0.373

# Study 4 — technique: RNA Bind-n-Seq; molecule type: RNA; sample: in vitro; tested at: not given; setting: RNA with constant flanks, ends assumed; relative to: input RNA pool; reading: higher = stronger binding
# Target: RING finger protein unkempt homolog, zinc fingers 1-6, GST-SBP tag (UNK, Homo sapiens, UniProt Q9C0B0, residues 30-357)
# Constant ends, left off below: GGGAGUUCUACAGUCCGACGAUC … CAACAGAGGAUUGAGCAUCA
# Construct (chain): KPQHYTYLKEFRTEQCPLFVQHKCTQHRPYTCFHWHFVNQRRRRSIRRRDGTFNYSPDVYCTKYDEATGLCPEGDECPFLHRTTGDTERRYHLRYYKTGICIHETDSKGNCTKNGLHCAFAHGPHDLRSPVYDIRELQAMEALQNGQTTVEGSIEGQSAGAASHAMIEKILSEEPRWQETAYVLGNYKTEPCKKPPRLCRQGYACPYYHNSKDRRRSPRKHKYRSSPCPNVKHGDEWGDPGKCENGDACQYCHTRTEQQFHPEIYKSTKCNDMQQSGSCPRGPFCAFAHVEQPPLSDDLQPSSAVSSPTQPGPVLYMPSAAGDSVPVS
Oligonucleotide,bound/input enrichment [ratio]
AAUGAUGUUGAAGUCAAAUGGAUUGAAUACCAGAAUAUGGUGAACUACCUCAUCCAAUGGAUCCGACACCAUGUGACCACAAUGUCUGAGAGAACAUUUCCUAAUAAUCCUGUAGAACUG,0.292
ACAGCCAUGGCAACUAGUCUCACGAACGUAGGAAAUUCAUUUAGUGGCCCACCUAAUCCUUCCGUGUCUAGAUCUAGUAAGUUUCAGAACUCAUCAGUAGAAGAUGAUGAUGACGUUGUU,11
AUCUAUUCCCCUCUUUUUAUUUCUGGGGCCGGUUUUUUCCUUUUUUUUUUAAUCCCUCCUCCGCUUUUUAUGCGCUCAUAAUCAAUUGUACCCAUUCCCUACAUAACGGGAGCAGUGAUC,2.95
UGGUUCUCCUCCAACUGAGAAAGCUUACAGUACAAUUUAAAGUGGGUCUCGCCUGCACUUACCCGUGUCUGACGAAACAGUCUUACAUCUGCCUAAGUAAUAGAAGAGCCCUGCAGAAUA,0.0996
AUCACCAUGUUGGAGGCAGCCUUGGGACUGGAGCGAGCUCACAUGGGAAUGUUCACAGAGCCCGCUAUUUUGUAUUCUAAAUUCAAGCCACAGAAAAUGAGAGAACACCUGGAGUUGUUC,0.222
CCCCCAACUGUUCACCUUUAGAAAUGUCCAGACAAGGAGCCUGGUCUGCUUAUAUCAUGGUCCGGGAUGAUAGUCCGGACUAGCCAGGGUCAAAGUUGCUUUUAAUGUAGAGCCCAACCC,1.84
ACAAUUGCUGUAAAACAAAGGUAAUUACUUAAGUGGUGGUGCAGGCCUUUAAUCCCAGCACUCCGAAGGCAGAGGAAGGUGGAUCUCUGAGAUCAAGGCCAGCCUGGUCUACACAGUGAG,0.31
AGUGAAUGAGGUGGAGCUUCUGGUGAUGAAGGCCCUUUCGGUGGGGCUGGUGAAAGGCAGUACCGACGAGGUGGACAAACGAGUCCACAUGACCUGGGUGCAGCCCCGAGUGUUGGAUUU,0.092

# Study 5 — technique: RNA Bind-n-Seq; molecule type: RNA; sample: in vitro; tested at: 200 nM; setting: whole 134-nt RNA, ends assumed; with: 150 mM KCl; relative to: input library; reading: higher = stronger binding
# Target: Ras GTPase-activating protein-binding protein 1, full length (G3BP1, Homo sapiens, UniProt Q13283)
# Sequence of UniProt Q13283 (whole entry, looked up): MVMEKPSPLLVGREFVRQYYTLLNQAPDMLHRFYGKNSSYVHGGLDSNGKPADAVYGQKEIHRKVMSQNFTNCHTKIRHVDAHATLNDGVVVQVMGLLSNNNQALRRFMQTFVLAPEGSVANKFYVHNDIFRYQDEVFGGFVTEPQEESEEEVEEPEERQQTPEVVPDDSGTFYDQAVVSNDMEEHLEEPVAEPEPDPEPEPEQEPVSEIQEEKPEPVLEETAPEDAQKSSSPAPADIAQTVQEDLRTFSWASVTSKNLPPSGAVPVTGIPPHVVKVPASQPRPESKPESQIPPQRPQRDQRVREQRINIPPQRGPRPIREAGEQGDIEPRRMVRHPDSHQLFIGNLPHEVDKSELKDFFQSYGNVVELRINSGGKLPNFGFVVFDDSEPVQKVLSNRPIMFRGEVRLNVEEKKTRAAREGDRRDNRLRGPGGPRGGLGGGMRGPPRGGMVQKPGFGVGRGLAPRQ
# Constant ends, left off below: GGGAGUUCUACAGUCCGACGAUC … UGGAAUUCUCGGGUGUCAAGG
Oligonucleotide,log2 enrichment
AAGUCCUGUGCUACACAUCGUAUGUACCGAAUCGGGGAAAAGGAAAAGGGAAAAGGGAAAGUAUUAUGUUACGCCGUUCGGAUCUGCACU,-0.592
UGGCCCUGGUGGCAUGCGGGGAGGAAGAGGUGGCCUCAUGGAUCGUGGUGGUCCCGGUGGAAUGUUCAAAGGUGGCCGUGGUGGAGACAG,0.243
GUCCUGUGCUACACAUCGUAUGUACCGAAUCGGCCCCCGGGCCCCCGGGGCCCCCGGGAAAGUAUUAUGUUACGCCGUUCGGAUCUGCAC,-0.874
GUCCUGUGCUACACAUCGUAUGUACCGAAUCGGGGCCCCGGGCCCCGGGGCCCCGGGGAAAGUAUUAUGUUACGCCGUUCGGAUCUGCAC,-0.127
UCAAGUCCUGUGCUACACAUCGUAUGUACCGAAUCGGGUGGGAGGGUUUUUGGGAAAGUAUUAUGUUACGCCGUUCGGAUCUGCACUUCC,0.602
UGGAAGCUCAUACGACUGUGAAAGAAGCUGAGGAUGACAACAUCUCGGUCACAAUCCAGGCUGAAGAUGCCAUCACUCUGGAUUUUGAUG,-1.36
UCCUCAAGUCCUGUGCUACACAUCGUAUGUACCGAAUCGGUGGAAAGGAGGAAAGUAUUAUGUUACGCCGUUCGGAUCUGCACUUCCAGC,-0.588
UCAAGUCCUGUGCUACACAUCGUAUGUACCGAAUCGGGCCCGGCCCGGGCCCGGGAAAGUAUUAUGUUACGCCGUUCGGAUCUGCACUUC,-0.948
UGGCCCUGGUGGCUUGCGGGGAGGAAGAGGUGGCCUCAUGGAUCGUGGUGGUCCCGGUGGAAUGUUCAGAGGUGGCCGUGGUGGAGACAG,0.299

# Excerpt of the above (study 2):
Oligonucleotide,E-score
AAACGATT,-0.11
AATTACGA,-0.0355
ATAGTAAC,-0.11
CAGTAACG,-0.0822
AAATAAGA,-0.0433
ATATTCCG,0.188
